# Experimental data pooled from the literature.
# Each numbered part is a random draw from the data of one study; scales do not carry over between parts.
# Chain of UniProt Q9H2X6 (whole entry, looked up): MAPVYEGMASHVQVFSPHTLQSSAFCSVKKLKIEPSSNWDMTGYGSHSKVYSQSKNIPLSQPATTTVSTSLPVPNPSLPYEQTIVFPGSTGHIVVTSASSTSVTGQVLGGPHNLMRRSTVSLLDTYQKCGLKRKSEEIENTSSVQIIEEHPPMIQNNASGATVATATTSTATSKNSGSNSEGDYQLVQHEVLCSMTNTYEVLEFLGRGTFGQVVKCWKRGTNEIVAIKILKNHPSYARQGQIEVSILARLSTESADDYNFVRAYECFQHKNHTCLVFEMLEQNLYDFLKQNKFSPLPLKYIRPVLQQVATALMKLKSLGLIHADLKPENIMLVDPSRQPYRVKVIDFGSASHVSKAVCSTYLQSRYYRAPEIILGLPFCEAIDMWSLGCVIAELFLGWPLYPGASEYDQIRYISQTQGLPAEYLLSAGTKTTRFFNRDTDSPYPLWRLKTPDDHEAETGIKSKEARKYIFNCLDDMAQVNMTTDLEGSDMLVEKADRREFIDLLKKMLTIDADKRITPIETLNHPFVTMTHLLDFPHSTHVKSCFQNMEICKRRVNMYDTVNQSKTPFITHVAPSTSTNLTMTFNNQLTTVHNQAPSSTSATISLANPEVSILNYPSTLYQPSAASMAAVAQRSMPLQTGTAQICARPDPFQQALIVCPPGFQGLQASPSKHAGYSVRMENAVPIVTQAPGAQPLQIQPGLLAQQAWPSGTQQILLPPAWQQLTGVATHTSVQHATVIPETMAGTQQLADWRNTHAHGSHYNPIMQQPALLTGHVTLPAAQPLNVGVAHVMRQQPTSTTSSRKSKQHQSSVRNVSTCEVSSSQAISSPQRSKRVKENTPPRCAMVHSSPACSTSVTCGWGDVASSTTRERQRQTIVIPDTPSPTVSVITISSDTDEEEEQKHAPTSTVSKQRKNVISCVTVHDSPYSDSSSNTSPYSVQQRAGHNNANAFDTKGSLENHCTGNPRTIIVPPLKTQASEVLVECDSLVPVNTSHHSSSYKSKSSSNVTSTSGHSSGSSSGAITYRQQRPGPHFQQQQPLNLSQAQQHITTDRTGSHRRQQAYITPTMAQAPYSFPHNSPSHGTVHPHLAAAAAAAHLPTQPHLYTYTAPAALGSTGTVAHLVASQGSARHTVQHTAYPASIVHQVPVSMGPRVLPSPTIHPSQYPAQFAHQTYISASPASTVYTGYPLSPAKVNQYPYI
# Chain of UniProt P51817 (whole entry, looked up): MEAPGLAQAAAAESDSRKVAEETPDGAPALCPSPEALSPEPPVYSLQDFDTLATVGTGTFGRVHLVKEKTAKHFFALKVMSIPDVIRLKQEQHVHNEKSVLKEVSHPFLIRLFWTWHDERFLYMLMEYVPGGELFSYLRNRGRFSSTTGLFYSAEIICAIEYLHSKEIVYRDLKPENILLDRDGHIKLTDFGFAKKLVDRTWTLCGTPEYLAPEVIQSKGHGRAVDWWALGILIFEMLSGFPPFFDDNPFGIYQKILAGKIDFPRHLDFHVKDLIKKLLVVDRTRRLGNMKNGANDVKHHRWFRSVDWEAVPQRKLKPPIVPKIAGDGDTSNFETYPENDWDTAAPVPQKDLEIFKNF
# Chain of UniProt Q8NEB9 (whole entry, looked up): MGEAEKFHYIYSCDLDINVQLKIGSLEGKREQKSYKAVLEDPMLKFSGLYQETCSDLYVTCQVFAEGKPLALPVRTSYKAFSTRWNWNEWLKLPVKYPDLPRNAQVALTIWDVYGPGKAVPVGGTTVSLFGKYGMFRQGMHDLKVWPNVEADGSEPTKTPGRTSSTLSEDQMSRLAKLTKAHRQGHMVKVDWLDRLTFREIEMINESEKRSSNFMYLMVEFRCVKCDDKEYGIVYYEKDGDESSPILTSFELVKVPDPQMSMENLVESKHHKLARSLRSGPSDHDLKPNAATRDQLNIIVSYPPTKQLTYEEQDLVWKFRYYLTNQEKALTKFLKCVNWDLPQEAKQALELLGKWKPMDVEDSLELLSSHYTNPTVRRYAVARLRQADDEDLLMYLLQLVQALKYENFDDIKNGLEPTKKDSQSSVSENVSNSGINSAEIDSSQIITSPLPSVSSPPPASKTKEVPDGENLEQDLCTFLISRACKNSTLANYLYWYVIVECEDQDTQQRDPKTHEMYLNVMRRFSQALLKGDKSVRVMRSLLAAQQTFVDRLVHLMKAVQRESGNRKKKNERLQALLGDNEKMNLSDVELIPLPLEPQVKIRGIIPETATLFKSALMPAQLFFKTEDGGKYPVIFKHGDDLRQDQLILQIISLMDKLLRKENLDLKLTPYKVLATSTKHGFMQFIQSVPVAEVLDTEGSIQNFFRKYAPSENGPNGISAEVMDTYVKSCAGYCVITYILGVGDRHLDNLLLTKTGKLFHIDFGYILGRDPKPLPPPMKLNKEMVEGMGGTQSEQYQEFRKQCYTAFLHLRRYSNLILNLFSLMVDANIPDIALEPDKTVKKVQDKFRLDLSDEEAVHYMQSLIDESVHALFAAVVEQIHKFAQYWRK
# Chain of UniProt Q8TDC3 (whole entry, looked up): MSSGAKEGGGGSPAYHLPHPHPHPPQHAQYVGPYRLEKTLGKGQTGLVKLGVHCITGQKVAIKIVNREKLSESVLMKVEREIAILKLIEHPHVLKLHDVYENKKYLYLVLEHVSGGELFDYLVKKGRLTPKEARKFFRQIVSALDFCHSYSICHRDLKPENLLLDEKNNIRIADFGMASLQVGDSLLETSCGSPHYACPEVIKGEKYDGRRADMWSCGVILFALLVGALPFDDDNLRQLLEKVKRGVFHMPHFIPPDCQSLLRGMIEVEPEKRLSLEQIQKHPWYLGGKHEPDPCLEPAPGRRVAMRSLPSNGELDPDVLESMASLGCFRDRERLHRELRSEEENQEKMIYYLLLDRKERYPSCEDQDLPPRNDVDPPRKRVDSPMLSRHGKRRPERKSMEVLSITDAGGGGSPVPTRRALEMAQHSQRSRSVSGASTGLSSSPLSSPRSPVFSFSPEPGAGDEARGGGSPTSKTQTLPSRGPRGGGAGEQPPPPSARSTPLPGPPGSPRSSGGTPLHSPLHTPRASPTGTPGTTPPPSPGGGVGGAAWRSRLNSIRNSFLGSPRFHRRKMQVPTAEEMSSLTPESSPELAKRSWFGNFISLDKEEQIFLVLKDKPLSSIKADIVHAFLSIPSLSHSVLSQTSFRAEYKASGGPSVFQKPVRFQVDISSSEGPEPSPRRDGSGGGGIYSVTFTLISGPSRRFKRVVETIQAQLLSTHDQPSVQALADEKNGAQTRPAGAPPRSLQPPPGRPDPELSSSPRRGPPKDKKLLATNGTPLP
# Chain of UniProt P34947 (whole entry, looked up): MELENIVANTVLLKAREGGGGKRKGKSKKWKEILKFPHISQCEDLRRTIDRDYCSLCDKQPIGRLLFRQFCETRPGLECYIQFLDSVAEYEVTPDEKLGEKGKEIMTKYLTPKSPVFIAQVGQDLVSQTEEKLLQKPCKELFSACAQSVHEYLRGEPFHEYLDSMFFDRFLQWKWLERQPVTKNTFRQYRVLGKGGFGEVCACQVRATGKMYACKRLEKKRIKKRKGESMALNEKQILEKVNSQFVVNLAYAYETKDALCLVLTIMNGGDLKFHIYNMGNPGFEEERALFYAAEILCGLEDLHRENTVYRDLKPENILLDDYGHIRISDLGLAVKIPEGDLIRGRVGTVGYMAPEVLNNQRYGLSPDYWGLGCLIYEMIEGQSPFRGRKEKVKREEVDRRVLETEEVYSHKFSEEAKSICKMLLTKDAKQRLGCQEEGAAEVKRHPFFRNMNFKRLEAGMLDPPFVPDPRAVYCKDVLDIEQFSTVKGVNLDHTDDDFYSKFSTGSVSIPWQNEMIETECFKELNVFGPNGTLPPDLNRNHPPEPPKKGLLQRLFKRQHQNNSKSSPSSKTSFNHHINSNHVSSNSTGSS
# Chain of UniProt Q9P1W9 (whole entry, looked up): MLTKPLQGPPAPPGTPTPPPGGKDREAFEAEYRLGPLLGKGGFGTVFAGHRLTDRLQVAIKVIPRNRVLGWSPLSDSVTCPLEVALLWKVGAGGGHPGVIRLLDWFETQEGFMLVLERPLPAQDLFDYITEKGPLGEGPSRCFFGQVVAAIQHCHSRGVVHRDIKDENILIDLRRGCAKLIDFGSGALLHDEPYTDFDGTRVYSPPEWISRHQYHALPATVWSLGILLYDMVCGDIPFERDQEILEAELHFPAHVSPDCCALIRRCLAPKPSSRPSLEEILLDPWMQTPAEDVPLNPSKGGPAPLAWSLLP
# Chain of UniProt Q15139 (whole entry, looked up): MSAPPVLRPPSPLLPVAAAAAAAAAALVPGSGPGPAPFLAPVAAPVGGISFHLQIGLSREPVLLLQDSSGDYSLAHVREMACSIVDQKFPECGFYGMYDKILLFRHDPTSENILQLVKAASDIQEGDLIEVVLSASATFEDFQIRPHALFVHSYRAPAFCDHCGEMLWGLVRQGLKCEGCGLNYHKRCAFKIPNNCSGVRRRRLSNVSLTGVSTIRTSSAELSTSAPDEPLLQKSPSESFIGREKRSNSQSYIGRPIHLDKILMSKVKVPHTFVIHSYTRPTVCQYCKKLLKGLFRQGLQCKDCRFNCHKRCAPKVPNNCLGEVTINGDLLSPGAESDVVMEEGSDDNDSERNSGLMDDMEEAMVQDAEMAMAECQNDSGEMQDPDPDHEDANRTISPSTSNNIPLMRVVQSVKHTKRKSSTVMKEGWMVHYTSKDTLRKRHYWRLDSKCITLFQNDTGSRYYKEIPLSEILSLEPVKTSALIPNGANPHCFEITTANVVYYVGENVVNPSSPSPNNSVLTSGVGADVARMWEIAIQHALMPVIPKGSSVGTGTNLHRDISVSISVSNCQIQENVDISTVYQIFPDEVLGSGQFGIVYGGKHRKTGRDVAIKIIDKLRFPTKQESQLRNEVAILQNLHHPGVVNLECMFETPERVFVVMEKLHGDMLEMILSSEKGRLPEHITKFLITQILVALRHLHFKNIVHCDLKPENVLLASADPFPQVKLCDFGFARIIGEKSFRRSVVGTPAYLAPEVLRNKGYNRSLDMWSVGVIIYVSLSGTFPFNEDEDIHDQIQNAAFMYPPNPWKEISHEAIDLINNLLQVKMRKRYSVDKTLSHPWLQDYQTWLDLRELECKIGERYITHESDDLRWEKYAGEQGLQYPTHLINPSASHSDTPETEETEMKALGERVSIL

# Study 1 — observed: enzyme activity; mode: inhibitor; concentration: 0.5 µM; reference: control
# SMILES: CSc1nc(-c2ccnc(N[C@@H](C)c3ccccc3)c2)c(-c2ccc(F)cc2)[nH]1 (racemic)
target,remaining activity
"NEK9 (Homo sapiens, UniProt Q8TD19)",89.4%
"PRKD1 (Homo sapiens, UniProt Q15139)",90.1%
"BRSK1 (Homo sapiens, UniProt Q8TDC3)",84.6%
"RET (Homo sapiens, UniProt P07949)",101%
"Aurora kinase A (AURKA, Homo sapiens, UniProt O14965)",99.9%
"GRK5 (Homo sapiens, UniProt P34947)",103%

# Study 2 — method: competition with immobilised ligand; concentration: 0.1 µM
# SMILES: Cn1nc(C(=O)NCc2ccc(C(=O)O)cc2)cc1-c1ccc2[nH]ccc2c1
target,assay,remaining binding [%]
"PIM2 (Homo sapiens, UniProt Q9P1W9)",cell-free assay,81
"MAPK14 (Homo sapiens, UniProt Q16539)",cell-free assay,100
"KIT (Homo sapiens, UniProt P10721, T670I/V559D)",cell-free assay,77
"CDK5 (Homo sapiens, UniProt Q00535)",cell-free assay,90
"PIK3CA (Homo sapiens, UniProt P42336, I800L)",cell-free assay,100
"PIK3C3 (Homo sapiens, UniProt Q8NEB9)",cell-free assay,93
"TEC (Homo sapiens, UniProt P42680)",binding,89
"CDC42BPB (Homo sapiens, UniProt Q9Y5S2)",cell-free assay,100
"PRKX (Homo sapiens, UniProt P51817)",cell-free assay,71
"HIPK2 (Homo sapiens, UniProt Q9H2X6)",cell-free assay,97
"STK3 (Homo sapiens, UniProt Q13188)",cell-free assay,91
"MAP2K4 (Homo sapiens, UniProt P45985)",cell-free assay,79
"MAP3K19 (Homo sapiens, UniProt Q56UN5)",cell-free assay,85
"CHEK1 (Homo sapiens, UniProt O14757)",cell-free assay,83

# Study 3 — matrix: hydrocarbon/water
SMILES,logD
CCC[C@@H]1NC(=O)CN(CCC)C(=O)[C@H](CC(C)C)NC(=O)CSC[C@@H](C(=O)OCC)N(C)C(=O)[C@H](CC(C)C)NC(=O)[C@H](C)N(C)C(=O)[C@H](CC2CCCCC2)NC(=O)[C@H](C)N(C)C(=O)[C@H]2CCCN2C1=O,2.79
CC[C@H]1C(=O)N[C@@H](CC2CCCCC2)C(=O)N(C)[C@@H](C)C(=O)N[C@@H](CC(C)C)C(=O)N(C)Cc2cn(nn2)CC(=O)N[C@@H](CC(C)C)C(=O)N(C)[C@@H](C)C(=O)N[C@@H](CC(C)C)C(=O)N2CCC[C@@H]2C(=O)N1C,1.1
CC(C)C[C@@H]1NC(=O)[C@H](C)N(C)C(=O)[C@H]2CCCN2C(=O)[C@H](CC(C)C)NC(=O)[C@H](C)N(C)C(=O)[C@@H](CC(C)C)N(C)C1=O,0.883
CC[C@@H]1NC(=O)[C@H](CC)N(C)C(=O)[C@H]2CCCN2C(=O)[C@H](CC(C)C)NC(=O)[C@H](C)N(C)C(=O)[C@H](CC(C)C)NC(=O)Cn2cc(nn2)CN(C)C(=O)[C@H](CC(C)C)NC(=O)[C@H](C)N(C)C1=O,-1.18
CC(C)C[C@@H]1NC(=O)CN(CCCOC(C)C)C(=O)[C@H](C)NC(=O)[C@H](CC(C)C)N(C)C(=O)[C@H]2CCCN2C(=O)[C@H](Cc2ccccc2)NC(=O)CN(CC2CCCCC2)C(=O)[C@H](C)NC(=O)[C@H](CC(C)C)N(C)C(=O)[C@H]2CCCN2C1=O,3.2
CC(C)C[C@@H]1NC(=O)[C@H](Cc2ccc(O)cc2)N(C)C(=O)[C@H]2CCCN2C(=O)[C@H](CC(C)C)NC(=O)[C@H](CC(C)C)N(C)C(=O)[C@@H](Cc2ccccc2)N(C)C1=O,2.36

# Study 4 — mode: inhibitor; concentration: 10 µM; reference: control
# Target: Diamine acetyltransferase 1 (Homo sapiens, UniProt P21673)
# Residues (P21673 1-171): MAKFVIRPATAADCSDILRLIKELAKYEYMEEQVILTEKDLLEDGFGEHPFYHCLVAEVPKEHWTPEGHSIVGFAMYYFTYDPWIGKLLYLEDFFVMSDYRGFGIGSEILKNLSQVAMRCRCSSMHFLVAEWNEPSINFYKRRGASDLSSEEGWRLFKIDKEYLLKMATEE
SMILES,remaining activity [%]
C[C@@H]1O[C@@H](O[C@@H]2[C@@H](O)[C@H](OCCc3ccc(O)c(O)c3)O[C@H](CO)[C@H]2OC(=O)/C=C/c2ccc(O)c(O)c2)[C@H](O)[C@H](O)[C@H]1O,102
O=C(O)CCc1ccc(O)cc1,92.6
O=C(OC[C@H]1O[C@@H](OC(=O)c2cc(O)c(O)c(O)c2)[C@H](OC(=O)c2cc(O)c(O)c(O)c2)[C@@H](OC(=O)c2cc(O)c(O)c(O)c2)[C@@H]1OC(=O)c1cc(O)c(O)c(O)c1)c1cc(O)c(O)c(O)c1,102
NC(Cc1ccc(O)cc1)C(=O)O (racemic),95.3

# For quick reference, copied from above (study 3):
SMILES,logD
CC(C)C[C@@H]1NC(=O)CN(CCCOC(C)C)C(=O)[C@H](C)NC(=O)[C@H](CC(C)C)N(C)C(=O)[C@H]2CCCN2C(=O)[C@H](Cc2ccccc2)NC(=O)CN(CC2CCCCC2)C(=O)[C@H](C)NC(=O)[C@H](CC(C)C)N(C)C(=O)[C@H]2CCCN2C1=O,3.2
CC(C)C[C@@H]1NC(=O)[C@H](C)N(C)C(=O)[C@H]2CCCN2C(=O)[C@H](CC(C)C)NC(=O)[C@H](C)N(C)C(=O)[C@@H](CC(C)C)N(C)C1=O,0.883
CCC[C@@H]1NC(=O)CN(CCC)C(=O)[C@H](CC(C)C)NC(=O)CSC[C@@H](C(=O)OCC)N(C)C(=O)[C@H](CC(C)C)NC(=O)[C@H](C)N(C)C(=O)[C@H](CC2CCCCC2)NC(=O)[C@H](C)N(C)C(=O)[C@H]2CCCN2C1=O,2.79
CC(C)C[C@@H]1NC(=O)[C@H](Cc2ccc(O)cc2)N(C)C(=O)[C@H]2CCCN2C(=O)[C@H](CC(C)C)NC(=O)[C@H](CC(C)C)N(C)C(=O)[C@@H](Cc2ccccc2)N(C)C1=O,2.36
